{"data": "Assay results gathered from unrelated publications", "note": "Each numbered part is a random draw from the data of one study; scales do not carry over between parts. Positions count from the first letter of the parent shown."}
{"data": "Sample 1", "target": "Ras GTPase-activating protein-binding protein 1, C-terminal RGG region (G3BP1, Homo sapiens, UniProt Q13283)", "method": "RNA Bind-n-Seq", "molecule type": "RNA", "medium": "in vitro", "tested at": "1 µM", "setting": "whole 134-nt RNA, ends assumed", "with": "150 mM KCl", "relative to": "input library", "reading": "higher = stronger binding", "all sequences stand within": "GGGAGUUCUACAGUCCGACGAUC … UGGAAUUCUCGGGUGUCAAGG", "UniProt Q13283, sequence (whole entry, looked up)": "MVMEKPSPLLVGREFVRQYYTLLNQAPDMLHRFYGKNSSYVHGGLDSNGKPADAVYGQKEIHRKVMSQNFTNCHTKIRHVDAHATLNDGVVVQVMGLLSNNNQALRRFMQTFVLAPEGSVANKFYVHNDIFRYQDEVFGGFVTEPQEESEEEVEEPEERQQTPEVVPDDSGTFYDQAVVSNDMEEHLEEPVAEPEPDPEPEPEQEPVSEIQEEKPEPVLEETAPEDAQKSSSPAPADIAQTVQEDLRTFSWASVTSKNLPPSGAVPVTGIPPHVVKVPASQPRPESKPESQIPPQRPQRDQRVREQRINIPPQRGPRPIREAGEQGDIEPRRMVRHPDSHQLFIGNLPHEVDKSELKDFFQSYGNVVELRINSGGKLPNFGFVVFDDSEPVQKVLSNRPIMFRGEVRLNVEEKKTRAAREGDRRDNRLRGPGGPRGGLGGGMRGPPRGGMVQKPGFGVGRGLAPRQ"}
{"Strand": "CUCAAGUCCUGUGCUACACAUCGUAUGUACCGAAUCGGUUUGGUGGUUUUUGGAAAGUAUUAUGUUACGCCGUUCGGAUCUGCACUUCCA", "log2 enrichment": -0.763}
{"Strand": "CACAGACAACACGCACCCACACGGACACAGAGGGAAGGGGUUGGGAUGGGGACAGGGUGCACAGCAGGGCGGGGUAGGACCCCAGCCCCU", "log2 enrichment": -0.574}
{"Strand": "UGUGUGUUAUAUAUUUAUUUUUAAUUGCAGAUGACAGGAUUGGACAUUGAGAAGGACCAGAUUAUUGAGAUGGCCUGUCUGAUAACUGAC", "log2 enrichment": -2.48}
{"Strand": "UCCUCAAGUCCUGUGCUACACAUCGUAUGUACCGAAUCGGGCGGGGCGGCGGAAAGUAUUAUGUUACGCCGUUCGGAUCUGCACUUCCAG", "log2 enrichment": -0.698}
{"Strand": "CACAGACAACACGCACCCACACAGACACAGAGGGAAGGGGUUGGGAUGGGGACAGGGUGCACAGCAGGGCGGGAAAGGACCCCAGCCCCU", "log2 enrichment": -0.325}
{"Strand": "AGUCCUGUGCUACACAUCGUAUGUACCGAAUCGGUUUUUGGGGUUUUUGGUUUUUGGGAAAGUAUUAUGUUACGCCGUUCGGAUCUGCAC", "log2 enrichment": -1.25}
{"Strand": "UAACUUUAGAGGAGGAUCUGAAGGAUAUGGCAGUGGACGUGGAUUUGGGGAUGGCUAUAAUGGGUAUGGAGGAGGACCUGGAGGUGGCAA", "log2 enrichment": -1.34}
{"Strand": "UGGCCCUGGUGGCAUGCGGGGAGUAAGAGGUGGCCUCAUGGAUCGUGGUGGUCCCGGUGGAAUGUUCAGAGGUGGCCGUGGUGGAGACAG", "log2 enrichment": 2.59}
{"Strand": "CCUCAAGUCCUGUGCUACACAUCGUAUGUACCGAAUCGGUGGUUUUUGGUGGAAAGUAUUAUGUUACGCCGUUCGGAUCUGCACUUCCAG", "log2 enrichment": -0.574}
{"data": "Sample 2", "target": "CCNB3, cyclin fold, Cln2 fusion (human)", "method": "yeast growth competition, sequencing", "medium": "yeast", "setting": "weak parent motif", "relative to": "not given", "reading": "higher = stronger binding", "starting sequence": "E2F3 docking peptide (human); PPAKRRLELGESG"}
{"Substitution": "PAAKRRLELGESG [P2A]", "normalised enrichment score": 0.299}
{"Substitution": "PPAKARAELGESG [R5A L7A]", "normalised enrichment score": -0.00321}
{"Substitution": "PPAKRRLEFGESG [L9F]", "normalised enrichment score": 1.66}
{"Substitution": "PPAKKRLEFGESG [R5K L9F]", "normalised enrichment score": 0.628}
{"Substitution": "PPAKRRLELGASG [E11A]", "normalised enrichment score": 0.492}
{"Substitution": "PPAKRRLELGEAG [S12A]", "normalised enrichment score": 0.232}
{"Substitution": "PPAKRRLEAGESG [L9A]", "normalised enrichment score": 0.35}
{"Substitution": "PPAKRALELGESG [R6A]", "normalised enrichment score": 0.483}
{"Substitution": "APAKRRLELGESG [P1A]", "normalised enrichment score": 0.342}
{"data": "Sample 3", "target": "ABI1, truncated, D143A, DHFR fusion (Arabidopsis thaliana)", "method": "DHFR PCA, deep sequencing", "medium": "yeast", "setting": "methotrexate growth selection, single substitutions", "with": "(+)-ABA 0.0091 µM", "relative to": "wild-type fitted maximum", "reading": "higher = stronger binding", "starting sequence": "PYL1, truncated, DHFR fusion (Arabidopsis thaliana); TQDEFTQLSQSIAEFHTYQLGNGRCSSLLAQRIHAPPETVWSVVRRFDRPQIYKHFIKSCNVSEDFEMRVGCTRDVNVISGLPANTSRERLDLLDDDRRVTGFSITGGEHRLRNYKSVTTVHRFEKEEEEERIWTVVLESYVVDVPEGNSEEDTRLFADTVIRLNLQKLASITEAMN; partner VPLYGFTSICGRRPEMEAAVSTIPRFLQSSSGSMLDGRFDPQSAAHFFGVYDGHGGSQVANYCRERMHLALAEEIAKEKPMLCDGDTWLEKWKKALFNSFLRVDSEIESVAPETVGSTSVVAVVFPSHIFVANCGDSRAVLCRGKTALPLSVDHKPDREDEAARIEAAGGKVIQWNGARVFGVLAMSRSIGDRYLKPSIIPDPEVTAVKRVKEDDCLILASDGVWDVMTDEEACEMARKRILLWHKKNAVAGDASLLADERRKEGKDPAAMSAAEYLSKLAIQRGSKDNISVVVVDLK"}
{"Substitution": "R88A", "relative binding score": "5.17%"}
{"Substitution": "R98I", "relative binding score": "-7.5%"}
{"Substitution": "T101Q", "relative binding score": "-13.6%"}
{"Substitution": "D97Q", "relative binding score": "25%"}
{"Substitution": "T73P", "relative binding score": "-0.169%"}
{"Substitution": "D75N", "relative binding score": "22.7%"}
{"Substitution": "D144R", "relative binding score": "-2.27%"}
{"Substitution": "I12S", "relative binding score": "-4.52%"}
{"Substitution": "I133C", "relative binding score": "44.7%"}
{"Substitution": "F5M", "relative binding score": "49.5%"}
{"Substitution": "T160M", "relative binding score": "5.68%"}
{"Substitution": "Q51W", "relative binding score": "-1.41%"}
{"Substitution": "V100M", "relative binding score": "-0.283%"}
{"Substitution": "L28G", "relative binding score": "-0.707%"}
{"Substitution": "R46Y", "relative binding score": "-11.4%"}
{"data": "Sample 4", "target": "NFE2L2, bZIP domain (human)", "method": "DHFR protein complementation", "medium": "yeast", "setting": "single substitutions, most at no-binding floor", "relative to": "wild-type JUN-FOS pair", "reading": "higher = stronger binding", "starting sequence": "JUN, bZIP domain (human); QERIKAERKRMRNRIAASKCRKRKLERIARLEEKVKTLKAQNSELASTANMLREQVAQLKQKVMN; partner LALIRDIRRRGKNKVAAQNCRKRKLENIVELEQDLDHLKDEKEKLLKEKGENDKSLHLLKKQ"}
{"Substitution": "K36F", "binding fitness [natural log]": -1.45}
{"Substitution": "A46V", "binding fitness [natural log]": -1.43}
{"Substitution": "L38S", "binding fitness [natural log]": -1.53}
{"Substitution": "S43D", "binding fitness [natural log]": -1.55}
{"Substitution": "E54K", "binding fitness [natural log]": -1.15}
{"Substitution": "A57K", "binding fitness [natural log]": -1.34}
{"Substitution": "K39N", "binding fitness [natural log]": -1.46}
{"Substitution": "E33H", "binding fitness [natural log]": -1.47}
{"Substitution": "V35Y", "binding fitness [natural log]": -1.5}
{"Substitution": "K34M", "binding fitness [natural log]": -1.14}
{"Substitution": "T48S", "binding fitness [natural log]": -1.31}
{"Substitution": "N42W", "binding fitness [natural log]": -1.55}
{"Substitution": "E32Y", "binding fitness [natural log]": -1.5}
{"Substitution": "E33S", "binding fitness [natural log]": -1.27}
{"data": "Sample 5", "target": "Sal-like protein 4, full length isoform A (SALL4, Homo sapiens, UniProt Q9UJQ4, residues 1-1053)", "method": "universal PBM", "molecule type": "double-stranded DNA, one strand shown", "medium": "in vitro", "tested at": "600 nM", "setting": "8-mer, flanks averaged, mean of replicates", "reading": "higher = stronger binding", "UniProt Q9UJQ4, sequence (whole entry, looked up)": "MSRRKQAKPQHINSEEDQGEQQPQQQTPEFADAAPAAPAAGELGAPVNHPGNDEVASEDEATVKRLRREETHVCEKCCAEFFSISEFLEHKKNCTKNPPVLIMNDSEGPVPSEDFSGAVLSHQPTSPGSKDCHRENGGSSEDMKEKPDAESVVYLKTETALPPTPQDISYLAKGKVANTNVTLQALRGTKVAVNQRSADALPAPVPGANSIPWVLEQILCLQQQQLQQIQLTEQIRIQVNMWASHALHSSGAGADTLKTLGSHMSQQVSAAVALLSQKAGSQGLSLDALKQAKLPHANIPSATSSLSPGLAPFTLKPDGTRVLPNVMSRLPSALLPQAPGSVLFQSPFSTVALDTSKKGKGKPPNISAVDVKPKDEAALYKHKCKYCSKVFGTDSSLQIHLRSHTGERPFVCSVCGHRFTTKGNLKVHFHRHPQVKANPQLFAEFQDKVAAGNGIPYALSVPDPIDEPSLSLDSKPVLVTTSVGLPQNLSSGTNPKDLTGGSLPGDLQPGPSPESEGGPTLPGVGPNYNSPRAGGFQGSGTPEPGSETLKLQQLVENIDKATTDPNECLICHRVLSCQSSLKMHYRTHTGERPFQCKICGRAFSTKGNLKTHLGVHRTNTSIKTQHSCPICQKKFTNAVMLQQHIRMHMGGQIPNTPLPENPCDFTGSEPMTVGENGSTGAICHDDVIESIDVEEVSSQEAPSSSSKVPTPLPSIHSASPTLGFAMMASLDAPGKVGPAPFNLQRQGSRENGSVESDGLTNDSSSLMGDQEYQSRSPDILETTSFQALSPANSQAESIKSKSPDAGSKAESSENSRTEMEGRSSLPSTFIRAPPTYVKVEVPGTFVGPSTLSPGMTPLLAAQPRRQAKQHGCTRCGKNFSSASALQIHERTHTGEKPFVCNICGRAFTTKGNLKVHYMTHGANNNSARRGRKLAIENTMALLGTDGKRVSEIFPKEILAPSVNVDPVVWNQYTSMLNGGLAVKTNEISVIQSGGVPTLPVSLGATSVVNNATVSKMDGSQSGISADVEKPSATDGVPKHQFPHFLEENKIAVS"}
{"Strand": "CACTTAAC", "E-score": 0.0384}
{"Strand": "GCGTGGCA", "E-score": -0.295}
{"Strand": "CCAAAGCA", "E-score": -0.00358}
{"Strand": "CCGATTCC", "E-score": -0.197}
{"Strand": "GTCAAGAA", "E-score": 0.0814}
{"Strand": "GGCCTCAA", "E-score": -0.125}
{"Strand": "AGCCTAGG", "E-score": -0.25}
{"Strand": "CAACGGCC", "E-score": -0.245}
{"Strand": "CCGGTCCA", "E-score": -0.405}
{"Strand": "AGCCGCGG", "E-score": -0.286}
{"Strand": "GAAGGATA", "E-score": 0.00443}
{"Strand": "AACTGTCT", "E-score": -0.142}
{"Strand": "CTCTCTCA", "E-score": 0.0803}
{"Strand": "ACTGTTGG", "E-score": -0.0949}
{"Strand": "CGATCGAA", "E-score": -0.0176}
{"Strand": "GTAGGTGA", "E-score": -0.067}
{"Strand": "TCGCGCAA", "E-score": 0.0931}
{"Strand": "GTAAGCTA", "E-score": 0.102}
{"Strand": "CGTATTAA", "E-score": 0.169}
{"Strand": "AGTTCAGC", "E-score": -0.211}
{"Strand": "CCTCCAAA", "E-score": -0.079}
{"Strand": "CAACATTC", "E-score": -0.0981}
{"Strand": "CGTTTTCC", "E-score": 0.0593}
{"Strand": "AGGATGCG", "E-score": -0.0883}
{"Strand": "ATCGCGCA", "E-score": -0.0852}
{"note": "For quick reference, copied from above (sample 1):"}
{"Strand": "UAACUUUAGAGGAGGAUCUGAAGGAUAUGGCAGUGGACGUGGAUUUGGGGAUGGCUAUAAUGGGUAUGGAGGAGGACCUGGAGGUGGCAA", "log2 enrichment": -1.34}
{"Strand": "CACAGACAACACGCACCCACACAGACACAGAGGGAAGGGGUUGGGAUGGGGACAGGGUGCACAGCAGGGCGGGAAAGGACCCCAGCCCCU", "log2 enrichment": -0.325}
{"Strand": "UCCUCAAGUCCUGUGCUACACAUCGUAUGUACCGAAUCGGGCGGGGCGGCGGAAAGUAUUAUGUUACGCCGUUCGGAUCUGCACUUCCAG", "log2 enrichment": -0.698}
{"Strand": "UGUGUGUUAUAUAUUUAUUUUUAAUUGCAGAUGACAGGAUUGGACAUUGAGAAGGACCAGAUUAUUGAGAUGGCCUGUCUGAUAACUGAC", "log2 enrichment": -2.48}
{"Strand": "UGGCCCUGGUGGCAUGCGGGGAGUAAGAGGUGGCCUCAUGGAUCGUGGUGGUCCCGGUGGAAUGUUCAGAGGUGGCCGUGGUGGAGACAG", "log2 enrichment": 2.59}
{"Strand": "AGUCCUGUGCUACACAUCGUAUGUACCGAAUCGGUUUUUGGGGUUUUUGGUUUUUGGGAAAGUAUUAUGUUACGCCGUUCGGAUCUGCAC", "log2 enrichment": -1.25}
{"Strand": "CCUCAAGUCCUGUGCUACACAUCGUAUGUACCGAAUCGGUGGUUUUUGGUGGAAAGUAUUAUGUUACGCCGUUCGGAUCUGCACUUCCAG", "log2 enrichment": -0.574}
{"Strand": "CUCAAGUCCUGUGCUACACAUCGUAUGUACCGAAUCGGUUUGGUGGUUUUUGGAAAGUAUUAUGUUACGCCGUUCGGAUCUGCACUUCCA", "log2 enrichment": -0.763}
